Published values of several laboratories.
Each numbered part is a random draw from the data of one study; scales do not carry over between parts.

Set 1 — technique: RNA Bind-n-Seq; form: RNA; sample: in vitro; tested at: 1 µM; notes: whole 134-nt RNA, ends assumed; added: 150 mM KCl; relative to: input library; direction: higher = stronger binding
Target: Ras GTPase-activating protein-binding protein 1, C-terminal RGG region (G3BP1, Homo sapiens, UniProt Q13283)
Chain of UniProt Q13283 (whole entry, looked up): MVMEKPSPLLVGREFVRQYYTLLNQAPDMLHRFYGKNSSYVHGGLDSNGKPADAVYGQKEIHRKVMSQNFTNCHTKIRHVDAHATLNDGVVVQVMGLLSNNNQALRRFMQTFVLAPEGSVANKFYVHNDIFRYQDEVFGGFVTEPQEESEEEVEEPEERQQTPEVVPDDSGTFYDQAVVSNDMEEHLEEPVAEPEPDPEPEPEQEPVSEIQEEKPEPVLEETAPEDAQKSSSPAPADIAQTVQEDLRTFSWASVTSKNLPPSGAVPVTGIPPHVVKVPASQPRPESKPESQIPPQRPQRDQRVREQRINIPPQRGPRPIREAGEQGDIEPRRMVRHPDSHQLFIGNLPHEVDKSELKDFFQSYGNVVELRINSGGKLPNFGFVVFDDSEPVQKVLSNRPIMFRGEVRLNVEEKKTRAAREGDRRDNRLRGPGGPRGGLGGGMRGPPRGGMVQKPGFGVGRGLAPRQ
The log2 enrichment of `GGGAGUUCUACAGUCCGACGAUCUGGCCCUGGUGGCAUGCGGGGAGGAAGGGGUGGCCUCAUGGAUCGUGGUGGUCCCGGUGGAAUGUUCAGAGGUGGCCGUGGUGGAGACAGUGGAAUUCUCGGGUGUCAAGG` is reported as 1.93.
The log2 enrichment of `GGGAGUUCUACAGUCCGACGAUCACCAUGCAGGUGGGCAUCUUUGGGAAGUGGGGCAAGGGGGCGAUAGGGAGGGGGGUAACACUUUGGGAACAGGUGGUCCCAGGUCGUUUCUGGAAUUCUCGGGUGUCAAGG` is reported as 2.02.
The log2 enrichment of `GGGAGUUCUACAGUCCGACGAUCUUUUAAUUUGUUUGUCUCUCAUGAAACUAUGGUCUUUUAAAAAUUAAAGGUUUUUUUUUUCCCCUUAGACGAAACUGCAAAGGAAAUCCGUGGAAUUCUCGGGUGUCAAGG` is reported as -1.2.
For `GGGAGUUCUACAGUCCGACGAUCUGUGCUACACAUCGUAUGUACCGAAUCGGGGAAAAAAAGGGAAAAAAAGGGAAAAAAAGGGGAAAGUAUUAUGUUACGCCGUUCGGAUCUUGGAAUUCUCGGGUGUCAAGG`, the log2 enrichment was -0.65.
`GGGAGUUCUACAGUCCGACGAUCAAGUCCUGUGCUACACAUCGUAUGUACCGAAUCGGGGAAAGGGAAAGGGAAAGGGGAAAGUAUUAUGUUACGCCGUUCGGAUCUGCACUUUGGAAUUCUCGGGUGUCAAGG` has a log2 enrichment of 0.887.
For `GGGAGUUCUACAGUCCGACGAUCCCUGUGCUACACAUCGUAUGUACCGAAUCGGGGAAAGGGGAAAAAGGGGUUUUUUUGGGGAAAGUAUUAUGUUACGCCGUUCGGAUCUGCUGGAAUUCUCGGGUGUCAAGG`, the log2 enrichment was 0.831.
`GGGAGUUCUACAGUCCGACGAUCUUUUCAAGGGCCGCUUGAAGAUGCCAUUGAAGAUGAGGAAGAAGAAUGUCCAUCAGAGGAAACAGACAUCAUCUCCAAAGGAGACUUUCCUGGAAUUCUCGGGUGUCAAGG` has a log2 enrichment of -1.94.
For `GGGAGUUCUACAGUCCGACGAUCUAACUUUAGAGGAGGAUCUGAUGGAUAUGGCAGUGGACGUGGAUUUGGGGAUGGCCAUAAUGGGUAUGGAGGAGGACCUGGAGGUGGCAAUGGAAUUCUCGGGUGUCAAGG`, the log2 enrichment was -0.816.
The log2 enrichment of `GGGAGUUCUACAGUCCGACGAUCCCUGUGCUACACAUCGUAUGUACCGAAUCGGGAAAAAGGGUUUUUUUGGGUUUUUUUGGGAAAGUAUUAUGUUACGCCGUUCGGAUCUGCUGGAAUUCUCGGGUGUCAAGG` is reported as -1.94.

Set 2 — technique: universal PBM; form: double-stranded DNA, one strand shown; sample: in vitro; tested at: 600 nM; direction: higher = stronger binding
Target: Sal-like protein 4, full length isoform A (SALL4, Homo sapiens, UniProt Q9UJQ4, residues 1-1053)
Chain of UniProt Q9UJQ4 (whole entry, looked up): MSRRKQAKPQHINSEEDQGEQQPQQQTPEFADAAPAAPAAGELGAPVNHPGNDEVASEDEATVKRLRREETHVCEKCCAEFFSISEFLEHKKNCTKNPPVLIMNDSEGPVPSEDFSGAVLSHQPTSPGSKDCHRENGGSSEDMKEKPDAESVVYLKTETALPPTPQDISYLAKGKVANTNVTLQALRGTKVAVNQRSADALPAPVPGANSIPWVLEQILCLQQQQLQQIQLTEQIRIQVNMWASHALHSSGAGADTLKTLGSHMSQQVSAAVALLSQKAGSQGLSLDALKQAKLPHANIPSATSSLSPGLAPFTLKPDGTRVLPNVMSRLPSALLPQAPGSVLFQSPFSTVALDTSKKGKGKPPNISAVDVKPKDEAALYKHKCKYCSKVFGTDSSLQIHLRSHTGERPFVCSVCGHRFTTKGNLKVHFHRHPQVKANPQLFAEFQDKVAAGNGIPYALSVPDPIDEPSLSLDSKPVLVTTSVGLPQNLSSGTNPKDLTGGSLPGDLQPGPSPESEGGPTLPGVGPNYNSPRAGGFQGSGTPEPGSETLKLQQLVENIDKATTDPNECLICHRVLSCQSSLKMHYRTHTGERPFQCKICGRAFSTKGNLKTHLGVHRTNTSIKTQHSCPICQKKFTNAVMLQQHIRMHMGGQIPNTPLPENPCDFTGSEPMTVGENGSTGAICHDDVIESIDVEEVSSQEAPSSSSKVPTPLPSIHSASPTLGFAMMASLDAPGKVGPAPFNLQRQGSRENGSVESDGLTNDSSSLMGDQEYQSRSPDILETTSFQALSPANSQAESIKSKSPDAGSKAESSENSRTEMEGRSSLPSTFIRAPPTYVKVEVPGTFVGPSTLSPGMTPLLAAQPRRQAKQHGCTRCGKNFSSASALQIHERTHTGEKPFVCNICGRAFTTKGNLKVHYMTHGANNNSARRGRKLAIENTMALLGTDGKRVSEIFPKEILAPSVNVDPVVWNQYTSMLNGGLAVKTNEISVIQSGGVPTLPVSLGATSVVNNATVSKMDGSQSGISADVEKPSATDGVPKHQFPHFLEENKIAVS
Notes: 8-mer, flanks averaged, mean of replicates
With `ACAAATCC` the E-score was 0.0872.
The E-score of `ACGACGAC` is reported as -0.0772.
With `AGCTAGCA` the E-score was -0.18.
With `ATCAAGGG` the E-score was 0.00685.
`CATTACAA` has an E-score of 0.29.
The E-score of `ACCTTCAG` is reported as -0.0492.
`ATAGCAAA` has an E-score of 0.281.
`CGCCATAG` gave an E-score of -0.0619.
`AGCATAGC` has an E-score of 0.105.
For `CTGAATAA`, the E-score was 0.208.
For `TATGAGGA`, the E-score was 0.223.
For `CCCTGTTC`, the E-score was -0.305.
`CTAACGTC` has an E-score of -0.0243.
`AATCCTCT` gave an E-score of -0.0335.
`CAGGTCGA` has an E-score of -0.15.
For `AAGCGACT`, the E-score was 0.0314.
`AAGTTATA` has an E-score of 0.376.
The E-score of `ACATGGTC` is reported as -0.118.
For `ATGCTTGC`, the E-score was -0.101.
`CACCTGAG` gave an E-score of -0.0773.
For `GAGGAAAC`, the E-score was -0.102.
For `ACAAATGA`, the E-score was 0.26.
`TCGGGAAA` gave an E-score of -0.0237.
The E-score of `CCCTTAGA` is reported as -0.122.
`CCTCTCGC` gave an E-score of -0.0915.

Set 3 — technique: RNA Bind-n-Seq; form: RNA; sample: in vitro; tested at: 365 nM; relative to: no-protein control; direction: higher = stronger binding
Target: RNA binding protein fox-1 homolog 2, RRM domain, GST-SBP tag (RBFOX2, Homo sapiens, UniProt O43251-10, residues 100-194)
Notes: natural RNA segment, single round, ends assumed
Residues (chain): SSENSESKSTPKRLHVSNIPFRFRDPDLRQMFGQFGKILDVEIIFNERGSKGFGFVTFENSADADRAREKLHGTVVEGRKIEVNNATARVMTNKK
Under “RBNS enrichment (R)”, `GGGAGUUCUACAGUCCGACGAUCCAUACACACAUACAUGCUUUUGUGAUUUUUUUUAUUAGUGCUUUUACAUUUAGAAAUAUUUAUUUAUUCUAGCAGGGAAAAAACCCCACAUGCUUUAAAUGAUGUCACUUUGGAAUUCUCGGGUGCCAA` is recorded as 0.843.
`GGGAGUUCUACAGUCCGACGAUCCAAACUCUACCCAGUCUUUUCUAGACCCUCAACUAUCUCCAGUGUUGUUGUUUAAUCGUAGCCGGAUCAGGGAGUGAGUCUUUUAGGCAAAUGUUGGAUUAUAUAUCAAAUGGAAUUCUCGGGUGCCAA` — result for “RBNS enrichment (R)”: 0.317.
Under “RBNS enrichment (R)”, `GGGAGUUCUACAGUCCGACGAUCUGAAAAAUGCUAUUAGCUGAACCACAUCCACAACAGCACAUAGAGCUCUAGAAGAGUUGAAACAUAGAUCAUUGAAGGUUAAAAAUCCUCUUCCAAAGCAGCAAGUCAAUUGGAAUUCUCGGGUGCCAA` is recorded as 0.428.
For `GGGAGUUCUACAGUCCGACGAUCUUGUUGUGGCCUUCCUGGUGUAAGAGUCUGUGUUCCUUGGUCACCUCUCCUGAUUCAGACCAGCUCCAUCAAGCAACCUCUUUUGACUUUCUGUAUAUGGAUGGCACAGAUGGAAUUCUCGGGUGCCAA`, “RBNS enrichment (R)” read 1.05.
For `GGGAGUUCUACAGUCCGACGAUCCACCUGUAGUCCCAGCUGCUUGGGAGGCUGAGGUGGGAGGAUGGCUAGAGCCCAGGAGAUGGGUGUUGCAGUGAGCUGAGACCAUGCCACUGUACUCUAGCCUGGGUAACUGGAAUUCUCGGGUGCCAA`, “RBNS enrichment (R)” read 0.362.
`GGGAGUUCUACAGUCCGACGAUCAGGACUUGAUCCUUCUCCAGGAAGAAGGUGCUUUCUGCUUACUGACUUAGGCAAUACACCAAGGGCGAGAUUUUAUAUGCACAUUUCUGGAUUUUUUUAUACGGUUUUCAUGGAAUUCUCGGGUGCCAA` — result for “RBNS enrichment (R)”: 0.837.
Under “RBNS enrichment (R)”, `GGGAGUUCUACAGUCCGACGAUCAAGGAGGGGAGACCCCCACUCGCCUGCCUGCCUGCAUCACGGGGCCAUUGUGAGGUUGGGGGAAGACCUGGCCGUGGAGCUACAAGCUUGUGCGGAUGUCAGGGGACAUUUGGAAUUCUCGGGUGCCAA` is recorded as 0.89.
`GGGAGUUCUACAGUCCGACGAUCGCUCUUUAAGGUGCCUCUUCAGGGACACAGUGUGUGUCUGAUUGGGCUUCGCAUCAAAAGCCUGACGUUCCUGUCCCUCUUAUAGGGGGAGCUUUGGACACAGGACCAGUUGGAAUUCUCGGGUGCCAA` — result for “RBNS enrichment (R)”: 0.204.

Set 4 — technique: RNA Bind-n-Seq; form: RNA; sample: in vitro; tested at: not given; relative to: input RNA pool; direction: higher = stronger binding
Target: RING finger protein unkempt homolog, zinc fingers 1-6, GST-SBP tag (UNK, Homo sapiens, UniProt Q9C0B0, residues 30-357)
Chain of UniProt Q9C0B0 (30-357, looked up): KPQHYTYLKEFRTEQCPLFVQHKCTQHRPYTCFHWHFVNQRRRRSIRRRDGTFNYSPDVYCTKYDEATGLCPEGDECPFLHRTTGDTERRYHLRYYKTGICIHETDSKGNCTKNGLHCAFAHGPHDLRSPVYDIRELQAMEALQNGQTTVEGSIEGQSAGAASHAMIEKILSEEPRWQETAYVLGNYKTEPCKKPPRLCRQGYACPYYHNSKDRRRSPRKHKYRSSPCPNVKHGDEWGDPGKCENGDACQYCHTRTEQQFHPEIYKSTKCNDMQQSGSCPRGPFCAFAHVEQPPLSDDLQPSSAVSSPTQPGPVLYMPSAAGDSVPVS
Notes: RNA with constant flanks, human-mouse chimeric sites, ends assumed
`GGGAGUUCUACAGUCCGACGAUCGUUGCCAGCUUCCGGUUCCGUUGGGCUCGGUUCUCUCCUGAGCUACGGUCCCUGGCAUUUUAGGUGUGCCAUCCAACAAACAUGGAUCAGGUAAUGCAGUUUGUGGAGCCCAGCCGGCAGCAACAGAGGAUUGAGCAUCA` gave a bound/input enrichment of 0.125 ratio.
With `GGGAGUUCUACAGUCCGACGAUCGUACUGCAGCAGCAGGGCAAGCUGCAGGAAGCACUGAUGCAUUAUAAGGAGGCUAUUCGAAUCAGUCCUACCUUUGCUGAUGCCUACUCUAAUAUGGGAAACACUCUAAAGGAGAUGCAGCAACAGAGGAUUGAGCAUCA` the bound/input enrichment was 0.362 ratio.
`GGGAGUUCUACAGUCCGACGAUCGCGGCAGAAUCAUGGAGGACAUAAUGCAGCUCCCCAAAGCGCGCGUCAACGCCAGCAUGUUACCACAGUAUAUCGACAAGCCUGUCUGCUUCGUAGGGAAGCUGGAAAAGAUUCAUCCCACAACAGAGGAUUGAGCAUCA` gave a bound/input enrichment of 0.16 ratio.
With `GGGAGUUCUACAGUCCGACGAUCGCUCCUCCCCGCUCUGCCCCUGCCUGCCACUGGGCUGGGACCAGAAUCCAGCUUUCUUUUAAAACUCUCAGUGUAACUUCUUUUUCUGACAUUUCAUUUUUUUUAAAUAGUGUAUUUUUUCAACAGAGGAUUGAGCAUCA` the bound/input enrichment was 6.58 ratio.
`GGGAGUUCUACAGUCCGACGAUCUUGAAAACUGAUUCAAGUAAGUUUGAGUAUCACAAUGUUAGCUUUCUAAUUCCAUAAAGAUAGUUUUUUUUUACAGUUUAUAAUCUGACAUCACCCCCCGUUUAUAAGUAAAGAGCAACUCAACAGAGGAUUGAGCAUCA` gave a bound/input enrichment of 7.81 ratio.
`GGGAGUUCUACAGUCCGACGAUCCAGUCCCCGUGUCCCAGUGCAGGACGAUGUGAACAAAAACUCAAAGCGGCCCUUUCUUUGUAGUUCUUGAUUCUCGAAAUGUGCUAUUAUUGUUUGUAAAAAAGGAAUUUUUUUUAAAGACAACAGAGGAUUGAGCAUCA` has a bound/input enrichment of 0.336 ratio.
With `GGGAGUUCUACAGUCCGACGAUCAAAUCGUGUGUGUCCAAUAUUGAAAGUACUUUAUCUGCACUCCAGUAUGUAAGCAGUAUAGUAGUUUCUUUAGAGAAUAGGUCAGCCAUUGUAAAGUACAAUGCAAGCUCAGUCACUCCACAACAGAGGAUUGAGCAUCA` the bound/input enrichment was 9.24 ratio.
`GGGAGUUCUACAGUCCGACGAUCGAUCAUGAACCACCAUCAGAAAUGAAGAUGAGAUUACCCAGACGAGCCCAAAACCGCGCGCUACAGAAAAGUAAACUUAACCUUGCACCAAUUUCUCAUGAAGAUACAAGUUAAGAGAGCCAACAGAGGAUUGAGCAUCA` gave a bound/input enrichment of 0.2 ratio.

A few entries again (set 2):
The E-score of `CCCTTAGA` is reported as -0.122.
`AGCATAGC` has an E-score of 0.105.
The E-score of `ACCTTCAG` is reported as -0.0492.
`CCTCTCGC` gave an E-score of -0.0915.
